Results of several laboratories.
Every numbered part comes from another study and shows a few of its results, in no order.

Series 1
Target: Histone acetyltransferase KAT6A, winged helix 2, GST fusion (KAT6A, Homo sapiens, UniProt Q92794, residues 85-181)
Technique: protein binding microarray
Form: double-stranded DNA, one strand shown
Medium: in vitro
Concentration: not given
Notes: 8-mer, flanks averaged, mean of 2 arrays, mostly near background
Baseline: not given
Direction: higher = stronger binding
Construct (chain): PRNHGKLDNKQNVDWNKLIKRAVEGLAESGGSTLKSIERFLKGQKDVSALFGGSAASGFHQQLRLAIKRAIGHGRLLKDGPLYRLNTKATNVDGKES
For `AGGTCCGC`, the E-score was 0.0861.
With `GGCATTCA` the E-score was 0.02.
The E-score of `CCCTTTTC` is reported as 0.0538.
`AGAGATCG` gave an E-score of -0.0123.
With `GTAACTAC` the E-score was -0.0924.
`GCAGCGAC` has an E-score of 0.0973.
`AGAAACGG` has an E-score of 0.199.
The E-score of `AGCGGTGC` is reported as 0.115.
`TCCCACAA` gave an E-score of 0.176.
`ATGAAGCG` has an E-score of -0.0965.
The E-score of `ACTTTTAG` is reported as -0.0346.
The E-score of `CTCGAATC` is reported as -0.0394.
For `CATTTTTA`, the E-score was -0.0825.
The E-score of `CGTGCCCA` is reported as 0.0105.
With `TATTAGCA` the E-score was 0.0583.
With `ACTCGTAC` the E-score was -0.187.
With `TACACGCA` the E-score was -0.184.
With `CTCGAGGC` the E-score was 0.151.
`AAGTGCGG` gave an E-score of 0.0367.
The E-score of `CACGAGCC` is reported as 0.0046.
For `GTGATCAC`, the E-score was -0.108.

Series 2
Target: PABPC1L2, full length, GST fusion (mouse, UniProt A0ABA7IW68)
Technique: RNAcompete
Form: RNA
Medium: in vitro
Concentration: 20 nM
Notes: 7-mer, probes averaged, single round
Baseline: mean of 7-mers
Direction: higher = stronger binding
Residues (chain): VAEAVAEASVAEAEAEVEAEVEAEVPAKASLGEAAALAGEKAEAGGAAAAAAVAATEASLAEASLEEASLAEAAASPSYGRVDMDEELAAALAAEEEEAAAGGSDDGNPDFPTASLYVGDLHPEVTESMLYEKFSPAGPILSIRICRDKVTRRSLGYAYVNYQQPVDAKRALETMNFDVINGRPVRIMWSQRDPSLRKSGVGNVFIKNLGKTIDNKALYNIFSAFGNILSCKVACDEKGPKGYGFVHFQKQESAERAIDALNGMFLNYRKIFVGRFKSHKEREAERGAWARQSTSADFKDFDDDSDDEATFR
With `GUCCGGC` the 7-mer Z-score was -0.266.
`UCGCUGG` has a 7-mer Z-score of -0.298.
The 7-mer Z-score of `GUCAUAC` is reported as -0.162.
The 7-mer Z-score of `AGGAAAG` is reported as 0.249.
`AAUGUCU` has a 7-mer Z-score of -0.159.
The 7-mer Z-score of `GCUAUGC` is reported as -0.222.
With `CGUCCUG` the 7-mer Z-score was -0.32.
The 7-mer Z-score of `GGCCUAC` is reported as -0.0428.
`UUACACA` gave a 7-mer Z-score of -0.197.
`CCCUGCG` has a 7-mer Z-score of -0.246.
`CCGCUUU` has a 7-mer Z-score of -0.275.
`CGCAAGG` gave a 7-mer Z-score of -0.199.
With `CCGCAAU` the 7-mer Z-score was -0.209.
`UAAUAGU` gave a 7-mer Z-score of -0.282.
`AAGGACA` gave a 7-mer Z-score of 0.539.
With `ACGCUUC` the 7-mer Z-score was -0.257.
With `UUAUUUU` the 7-mer Z-score was -0.264.
With `CAGCUGU` the 7-mer Z-score was -0.148.
The 7-mer Z-score of `UGAUUCU` is reported as -0.228.
`GCAUCGA` has a 7-mer Z-score of -0.124.
For `ACCUGCA`, the 7-mer Z-score was -0.237.
`GGCCAAU` gave a 7-mer Z-score of -0.0844.
`ACGUACC` gave a 7-mer Z-score of -0.24.
`UCGCGCA` has a 7-mer Z-score of -0.34.
The 7-mer Z-score of `AAGUCGA` is reported as 0.169.

Series 3
Target: Sal-like protein 4, full length isoform A (SALL4, Homo sapiens, UniProt Q9UJQ4, residues 1-1053)
UniProt Q9UJQ4, sequence (whole entry, looked up): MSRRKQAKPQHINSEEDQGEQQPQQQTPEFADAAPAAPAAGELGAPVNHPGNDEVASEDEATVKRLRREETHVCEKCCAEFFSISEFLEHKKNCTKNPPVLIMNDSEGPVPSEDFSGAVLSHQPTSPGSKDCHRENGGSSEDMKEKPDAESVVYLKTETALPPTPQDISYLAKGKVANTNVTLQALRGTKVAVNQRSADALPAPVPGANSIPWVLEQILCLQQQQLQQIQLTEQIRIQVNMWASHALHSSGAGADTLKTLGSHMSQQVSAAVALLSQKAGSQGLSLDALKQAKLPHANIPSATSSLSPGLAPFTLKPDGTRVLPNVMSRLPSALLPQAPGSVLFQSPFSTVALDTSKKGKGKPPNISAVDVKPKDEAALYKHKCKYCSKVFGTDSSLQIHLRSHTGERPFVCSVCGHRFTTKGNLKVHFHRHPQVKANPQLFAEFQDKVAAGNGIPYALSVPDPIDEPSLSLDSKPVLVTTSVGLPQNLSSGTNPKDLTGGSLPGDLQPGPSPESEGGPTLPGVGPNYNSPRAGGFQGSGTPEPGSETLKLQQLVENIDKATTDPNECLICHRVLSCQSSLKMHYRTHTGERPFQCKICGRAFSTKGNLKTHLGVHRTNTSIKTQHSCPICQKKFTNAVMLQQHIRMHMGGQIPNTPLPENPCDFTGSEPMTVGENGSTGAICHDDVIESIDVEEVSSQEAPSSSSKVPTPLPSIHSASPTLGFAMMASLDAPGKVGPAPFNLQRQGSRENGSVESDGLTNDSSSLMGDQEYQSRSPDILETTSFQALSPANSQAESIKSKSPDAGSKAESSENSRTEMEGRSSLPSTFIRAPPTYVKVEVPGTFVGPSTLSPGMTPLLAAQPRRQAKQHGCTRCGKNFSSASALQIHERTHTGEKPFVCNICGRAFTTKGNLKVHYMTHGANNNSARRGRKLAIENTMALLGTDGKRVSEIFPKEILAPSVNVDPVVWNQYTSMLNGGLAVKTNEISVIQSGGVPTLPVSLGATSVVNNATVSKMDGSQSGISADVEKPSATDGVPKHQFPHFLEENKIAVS
Technique: universal PBM
Form: double-stranded DNA, one strand shown
Medium: in vitro
Concentration: 600 nM
Notes: 8-mer, flanks averaged, mean of replicates
Direction: higher = stronger binding
The E-score of `CCTAGCTA` is reported as -0.0168.
The E-score of `GACGGGAC` is reported as -0.313.
`AATCTTTA` has an E-score of 0.269.
With `AATGAGCT` the E-score was 0.1.
`CCCGAAAG` gave an E-score of -0.113.
For `ACGCAGAA`, the E-score was 0.013.
`GGCTAATA` gave an E-score of 0.212.
With `AGTACACG` the E-score was -0.136.
For `TTATCCAA`, the E-score was 0.282.
The E-score of `ACAATCAT` is reported as 0.234.
`AGAACCCC` has an E-score of -0.226.
The E-score of `CATCTCCA` is reported as -0.0993.
For `AAAGGACA`, the E-score was 0.0946.
The E-score of `CCATTACG` is reported as -0.0919.
With `GGGTTTAC` the E-score was -0.0416.
The E-score of `CTAGTAGA` is reported as 0.127.
`GGTTCTGA` has an E-score of -0.12.
For `CGAAGACA`, the E-score was -0.176.
For `ACGGATGA`, the E-score was -0.0983.
With `ACAAGCCC` the E-score was -0.243.
`CCACCAAA` gave an E-score of 0.037.
With `ATCAAAGC` the E-score was -0.0668.
`CCTTGAAA` has an E-score of 0.0511.
`ATAAACTC` has an E-score of 0.286.
For `GACAGGAA`, the E-score was 0.0806.

Series 4
Target: RNA binding protein fox-1 homolog 2, RRM domain, GST-SBP tag (RBFOX2, Homo sapiens, UniProt O43251-10, residues 100-194)
Technique: RNA Bind-n-Seq
Form: RNA
Medium: in vitro
Concentration: 365 nM
Notes: natural RNA segment, single round, ends assumed
Baseline: no-protein control
Direction: higher = stronger binding
All sequences stand within: GGGAGUUCUACAGUCCGACGAUC … UGGAAUUCUCGGGUGCCAA
Construct (chain): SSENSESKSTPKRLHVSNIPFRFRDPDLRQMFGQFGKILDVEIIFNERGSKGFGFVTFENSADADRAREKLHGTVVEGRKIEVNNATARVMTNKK
Under “RBNS enrichment (R)”, `CCUUCUUCAUUGUUGUUUGUAUUUAUGAAAUUCUGAAAUUAUGGGGAAUCAGUGUACUGAUUAUGUUUUCAUCACCAGGCUGUGAGCAAUAUCUUGAGUUUGUAGCUUAG` is recorded as 1.02.
Under “RBNS enrichment (R)”, `UCAUGUGUCUGUGAAGAAUUGUACUUUAAGUGUGUGUCCUCUGAGGUGCUUGAGAAAGUGUACACUGCAGAACUGCCCAUUCUCAUUACUGUGUCCUAUUUUAUUCAUGC` is recorded as 0.788.
Under “RBNS enrichment (R)”, `CAUUUUCAGGCCCUGUGGGGCUCCUGAGGUUCAGUAGCUGGGAUGUUCCCUCUUUCCUUCAAGUGCCUGUUGCAUAUUGAAAGGAAGGAGAAAUCCCAAAGCAGAUUCCU` is recorded as 0.2.
`GGUUUCAGUACAUUGGCUUUUACAUCAAAAACUAACAGGGCACAGUUUGACCUGUUUAGUGUAUUCUGGGCCGAGUCUCUGAAGCAGGAGCAGAGCACACUCCCGGGAUU` — result for “RBNS enrichment (R)”: 0.356.
`ACAAAGAAAGUCCCUUGCUUGUCUGCACCAGGGAAGCAAGAGCUCCCAGUGACACCACCCCCUGCCUCUGGUUACUAUAAGAUGAGCCUUUAAGAUUCUUUCUAGACUUA`: “RBNS enrichment (R)” 0.363.
Under “RBNS enrichment (R)”, `UGAACACUUCCUUGCUUUUUUCACAUGUUUUAUGGAAUUGUUCACCUGGUUUGAAAUAAUAAAAUGUAGAAAGAAAAAAAAUACCGAGAACUGAUGGGUAUUCUCUCCCA` is recorded as 0.425.
`GCCCUUAAGUCCAGCGAGGAAAGCUCGGUGUGGGCCCGCUCUACGCUCCGUUUGGGGUGACCUGGAACGCCUCUUCUCCCAGCUCCCUCCAGCCAUCAGCAGCCUCUUGU` — result for “RBNS enrichment (R)”: 0.344.
For `GUCUCUCUUCUCCUUUAUAAAAUCCUCUGUGGUCAACUGACUACUGCGUAUCGCAGUGGAAUAAGACUGCACAGUUGCUGGUAGGUGAGUUUAAAGUCUUAAUCUAUGCA`, “RBNS enrichment (R)” read 0.748.
For `GAAGCUCUGAGAGACCAAAUAACAUGCCCAAAAUGAAGAGUGAGGAGCUGGAGUAGUUAGGGUUGACUUUGGUGGCAGCCCACCUUUCCUAACACACAUUCAGAGAAAGG`, “RBNS enrichment (R)” read 0.438.
`GCCGAUCCCGAUCCCUGUCGGGCUCCUCCGACUCCUCGGGCUGGACACCGAAACCUCCCUUCUUAAAGCGUGUGAGGUUGGGUGAUAGCCGUUCCUUCCCCGACACCCUC`: “RBNS enrichment (R)” 0.4.
`UAAGCGUUCCCUUUCCCCUUCUUAUUUAAGACUUCCCACCUUACUAAAUUACCAGCAAAACAAACCACUCUCCUGUUUGAGUAAAAUGAGAAAGUUAAUAUGUGGCCUCC` — result for “RBNS enrichment (R)”: 0.653.
Under “RBNS enrichment (R)”, `AGGGUAAGCUAGAGAGAAAAAGAAAGAACUGUCCGUCCCCCUUCCGCCUUCUCCCUUCUCUCACCCCCACCCUAGCCUCCACCAUCCCCGCACAAAGCGGCUCUAAACCU` is recorded as 0.491.

Series 5
Target: Interferon regulatory factor 3, full length, phosphomimetic (IRF3, Homo sapiens, UniProt Q14653, residues 1-427, S386D/S396D/S398D/S402D/T404D/S405D)
Technique: protein-binding microarray
Form: double-stranded DNA, one strand shown
Medium: in vitro
Concentration: 2540 nM top
Notes: 60-bp whole probe
Added: salmon DNA 0.4 mg/ml
Baseline: random background probes
Direction: higher = stronger binding
All sequences stand within: GCCTAGCAC … GTCTTGATTCGCTTGACGCTGCTG
Construct (chain): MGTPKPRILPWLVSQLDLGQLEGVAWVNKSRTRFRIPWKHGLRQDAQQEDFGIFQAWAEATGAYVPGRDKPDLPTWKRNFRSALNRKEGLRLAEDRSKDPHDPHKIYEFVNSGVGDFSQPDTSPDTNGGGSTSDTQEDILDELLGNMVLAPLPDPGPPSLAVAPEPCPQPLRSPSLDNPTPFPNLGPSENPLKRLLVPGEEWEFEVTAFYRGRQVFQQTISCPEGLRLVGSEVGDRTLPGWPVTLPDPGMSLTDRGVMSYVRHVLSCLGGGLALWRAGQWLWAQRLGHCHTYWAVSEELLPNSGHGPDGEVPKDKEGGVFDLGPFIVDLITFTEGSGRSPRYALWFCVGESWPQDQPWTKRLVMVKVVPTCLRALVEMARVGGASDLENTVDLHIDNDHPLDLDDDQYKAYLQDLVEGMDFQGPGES
`GACGGACTGCTTATCCTGATGTGCTAG` — result for “fitted relative affinity”: -0.302 z-score.
`TTGGGTTTCGACACTGGGTTAGTGCTA` — result for “fitted relative affinity”: 1.27 z-score.
Under “fitted relative affinity”, `GTGACAGTTTTATTTTAGTTGGTGCTA` is recorded as 2.24 z-score.
Under “fitted relative affinity”, `AGATTTTTCTCAACCGTTGTGTGCTAG` is recorded as 0.475 z-score.
For `GACGGACTGGACTTTCGGGTCGTGCTA`, “fitted relative affinity” read 0.227 z-score.
`TTAGTACTGGGACTGGGTTAGTGCTAG` — result for “fitted relative affinity”: -0.682 z-score.
`TTAGATTTCAGACTTGATTAGTGCTAG`: “fitted relative affinity” 1.18 z-score.
`GACGGTATGGACTATCGGGACGTGCTA`: “fitted relative affinity” -0.452 z-score.
`AAAACTCTTTATTTAAGCTCGTGCTAG`: “fitted relative affinity” 0.286 z-score.
`GACGGACTGGGTTTCGGGAAGTGCTAG` — result for “fitted relative affinity”: 0.701 z-score.
`GACGGTATCGGGACTGGGGTCGTGCTA` — result for “fitted relative affinity”: 1.68 z-score.
For `TCAATTTCTGTTTTTGCACTGTGCTAG`, “fitted relative affinity” read 3.33 z-score.
For `TGCTGTCTCAGAGTCCTCTGGTGCTAG`, “fitted relative affinity” read -0.294 z-score.
Under “fitted relative affinity”, `GACGGTCTCCTAGTGCTGACGTGCTAG` is recorded as 0.923 z-score.
Under “fitted relative affinity”, `AAGGATTTCAGTTTCTCTTTGTGCTAG` is recorded as 4.84 z-score.
Under “fitted relative affinity”, `TTAGAGCTCCTCCTTCTCTAAGTGCTA` is recorded as 1.03 z-score.
`TCACATTTGGAAAATGAAACTGTGCTA` — result for “fitted relative affinity”: 1.82 z-score.
`TTAGGTATCGGACTGGGTCAGTGCTAG`: “fitted relative affinity” 1.21 z-score.
`GACGGTTTCGGTTCTGGGACGTGCTAG` — result for “fitted relative affinity”: 11.2 z-score.
For `GACGGTTTCGGGATCGGGACGTGCTAG`, “fitted relative affinity” read 4.99 z-score.
`TTAGGTCTCGGTATCAGTTAGTGCTAG`: “fitted relative affinity” 1.73 z-score.
`TCACCTCTGCTCCTCTTACTGTGCTAG`: “fitted relative affinity” 0.23 z-score.
`CTCATTCGTCATTTCACAGTGTGCTAG`: “fitted relative affinity” 1.42 z-score.

Repeated from above (series 2):
With `UUAUUUU` the 7-mer Z-score was -0.264.
With `CAGCUGU` the 7-mer Z-score was -0.148.
The 7-mer Z-score of `UGAUUCU` is reported as -0.228.
`GCAUCGA` has a 7-mer Z-score of -0.124.
For `ACCUGCA`, the 7-mer Z-score was -0.237.
`GGCCAAU` gave a 7-mer Z-score of -0.0844.
`ACGUACC` gave a 7-mer Z-score of -0.24.
